Assay results pooled from the literature.
A part holds a random share of what one study measured.
Sequence of UniProt P10398 (whole entry, looked up): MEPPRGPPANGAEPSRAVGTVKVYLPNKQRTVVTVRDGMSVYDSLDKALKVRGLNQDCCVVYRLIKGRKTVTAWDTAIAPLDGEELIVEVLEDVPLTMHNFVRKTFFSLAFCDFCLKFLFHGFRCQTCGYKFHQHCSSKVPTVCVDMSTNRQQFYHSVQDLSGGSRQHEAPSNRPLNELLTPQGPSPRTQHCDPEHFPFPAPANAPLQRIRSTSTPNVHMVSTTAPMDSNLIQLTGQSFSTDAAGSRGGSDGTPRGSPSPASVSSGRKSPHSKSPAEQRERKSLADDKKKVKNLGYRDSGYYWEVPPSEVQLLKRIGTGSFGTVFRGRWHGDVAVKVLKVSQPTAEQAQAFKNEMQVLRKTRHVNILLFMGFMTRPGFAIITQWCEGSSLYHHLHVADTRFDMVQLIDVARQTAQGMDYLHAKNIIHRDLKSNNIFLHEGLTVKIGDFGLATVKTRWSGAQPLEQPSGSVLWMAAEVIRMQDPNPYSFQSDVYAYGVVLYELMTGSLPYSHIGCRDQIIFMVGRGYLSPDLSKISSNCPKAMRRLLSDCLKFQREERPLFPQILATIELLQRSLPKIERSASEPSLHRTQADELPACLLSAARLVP
Sequence of UniProt Q12866 (whole entry, looked up): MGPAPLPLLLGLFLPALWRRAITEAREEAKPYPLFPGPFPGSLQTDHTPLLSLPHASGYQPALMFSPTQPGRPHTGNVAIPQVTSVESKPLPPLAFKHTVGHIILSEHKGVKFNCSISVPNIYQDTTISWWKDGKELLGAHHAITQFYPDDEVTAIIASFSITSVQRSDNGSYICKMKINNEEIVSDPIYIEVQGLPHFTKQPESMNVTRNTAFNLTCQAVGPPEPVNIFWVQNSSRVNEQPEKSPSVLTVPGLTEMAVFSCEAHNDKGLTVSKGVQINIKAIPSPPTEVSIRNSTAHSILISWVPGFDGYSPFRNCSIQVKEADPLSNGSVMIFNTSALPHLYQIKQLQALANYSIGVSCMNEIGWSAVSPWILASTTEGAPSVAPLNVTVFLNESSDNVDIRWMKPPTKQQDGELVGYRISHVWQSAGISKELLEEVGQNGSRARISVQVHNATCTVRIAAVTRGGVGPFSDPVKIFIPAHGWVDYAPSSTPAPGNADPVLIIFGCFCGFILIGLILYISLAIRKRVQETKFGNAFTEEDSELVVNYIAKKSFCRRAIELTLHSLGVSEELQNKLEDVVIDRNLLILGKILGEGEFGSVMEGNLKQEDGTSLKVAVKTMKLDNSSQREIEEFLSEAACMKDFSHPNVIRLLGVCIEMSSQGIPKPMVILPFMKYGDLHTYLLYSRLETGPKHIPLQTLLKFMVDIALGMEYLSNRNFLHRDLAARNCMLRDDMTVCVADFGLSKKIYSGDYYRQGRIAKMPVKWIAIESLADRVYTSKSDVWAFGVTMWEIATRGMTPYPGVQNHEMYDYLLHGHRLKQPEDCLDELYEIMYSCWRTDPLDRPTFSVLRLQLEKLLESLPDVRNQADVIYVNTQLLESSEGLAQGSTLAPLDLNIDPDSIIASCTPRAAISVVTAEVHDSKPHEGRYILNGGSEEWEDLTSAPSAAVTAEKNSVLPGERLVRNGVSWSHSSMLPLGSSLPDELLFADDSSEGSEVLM
Sequence of UniProt P30291 (whole entry, looked up): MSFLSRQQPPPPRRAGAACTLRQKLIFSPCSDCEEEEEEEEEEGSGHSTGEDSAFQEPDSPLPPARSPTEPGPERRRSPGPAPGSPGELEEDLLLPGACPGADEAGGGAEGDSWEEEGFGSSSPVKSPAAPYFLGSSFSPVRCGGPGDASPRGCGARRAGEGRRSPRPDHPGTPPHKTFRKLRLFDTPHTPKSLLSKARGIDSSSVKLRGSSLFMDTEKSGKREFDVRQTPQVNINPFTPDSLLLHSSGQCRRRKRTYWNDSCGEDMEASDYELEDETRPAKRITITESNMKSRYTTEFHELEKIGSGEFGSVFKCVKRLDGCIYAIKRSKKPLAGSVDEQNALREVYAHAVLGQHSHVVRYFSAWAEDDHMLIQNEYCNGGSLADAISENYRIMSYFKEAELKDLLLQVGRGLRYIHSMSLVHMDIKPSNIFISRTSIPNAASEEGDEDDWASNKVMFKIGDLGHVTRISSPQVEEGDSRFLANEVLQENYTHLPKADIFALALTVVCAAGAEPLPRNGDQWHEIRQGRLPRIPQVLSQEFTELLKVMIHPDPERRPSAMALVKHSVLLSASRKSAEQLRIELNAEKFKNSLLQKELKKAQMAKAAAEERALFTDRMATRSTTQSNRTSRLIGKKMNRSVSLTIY
Sequence of UniProt Q96PY6 (whole entry, looked up): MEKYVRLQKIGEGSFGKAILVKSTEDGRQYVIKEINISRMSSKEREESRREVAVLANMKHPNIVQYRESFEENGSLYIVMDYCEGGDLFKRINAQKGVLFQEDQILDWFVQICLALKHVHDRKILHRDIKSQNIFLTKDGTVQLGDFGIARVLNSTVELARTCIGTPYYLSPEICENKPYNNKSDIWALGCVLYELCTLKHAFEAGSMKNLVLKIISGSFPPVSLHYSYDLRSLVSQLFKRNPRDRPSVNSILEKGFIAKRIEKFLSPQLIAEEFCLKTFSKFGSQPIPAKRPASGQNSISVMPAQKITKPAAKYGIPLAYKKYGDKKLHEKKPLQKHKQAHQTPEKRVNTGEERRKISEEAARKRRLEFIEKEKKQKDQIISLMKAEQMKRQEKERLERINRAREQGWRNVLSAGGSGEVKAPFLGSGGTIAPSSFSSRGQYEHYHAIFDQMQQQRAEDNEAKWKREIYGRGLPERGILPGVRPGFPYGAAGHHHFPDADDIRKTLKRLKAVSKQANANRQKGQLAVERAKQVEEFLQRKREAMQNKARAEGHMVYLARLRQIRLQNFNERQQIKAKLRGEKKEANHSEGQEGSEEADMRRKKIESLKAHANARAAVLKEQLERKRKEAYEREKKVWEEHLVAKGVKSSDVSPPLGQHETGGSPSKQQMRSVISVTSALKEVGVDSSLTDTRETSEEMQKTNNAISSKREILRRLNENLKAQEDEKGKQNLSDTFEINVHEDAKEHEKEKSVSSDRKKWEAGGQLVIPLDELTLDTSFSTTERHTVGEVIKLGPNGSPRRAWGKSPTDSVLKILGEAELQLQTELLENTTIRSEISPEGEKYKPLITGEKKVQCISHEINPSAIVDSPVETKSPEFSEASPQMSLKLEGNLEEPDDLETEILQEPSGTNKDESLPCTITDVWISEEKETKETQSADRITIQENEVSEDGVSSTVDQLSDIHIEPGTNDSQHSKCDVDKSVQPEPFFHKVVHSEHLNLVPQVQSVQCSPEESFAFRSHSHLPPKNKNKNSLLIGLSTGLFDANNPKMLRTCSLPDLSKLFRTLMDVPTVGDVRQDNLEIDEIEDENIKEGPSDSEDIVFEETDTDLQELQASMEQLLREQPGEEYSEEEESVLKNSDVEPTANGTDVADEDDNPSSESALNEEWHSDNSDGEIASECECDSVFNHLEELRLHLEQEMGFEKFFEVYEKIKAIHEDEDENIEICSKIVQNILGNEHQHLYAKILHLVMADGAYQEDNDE
Sequence of UniProt P49841 (whole entry, looked up): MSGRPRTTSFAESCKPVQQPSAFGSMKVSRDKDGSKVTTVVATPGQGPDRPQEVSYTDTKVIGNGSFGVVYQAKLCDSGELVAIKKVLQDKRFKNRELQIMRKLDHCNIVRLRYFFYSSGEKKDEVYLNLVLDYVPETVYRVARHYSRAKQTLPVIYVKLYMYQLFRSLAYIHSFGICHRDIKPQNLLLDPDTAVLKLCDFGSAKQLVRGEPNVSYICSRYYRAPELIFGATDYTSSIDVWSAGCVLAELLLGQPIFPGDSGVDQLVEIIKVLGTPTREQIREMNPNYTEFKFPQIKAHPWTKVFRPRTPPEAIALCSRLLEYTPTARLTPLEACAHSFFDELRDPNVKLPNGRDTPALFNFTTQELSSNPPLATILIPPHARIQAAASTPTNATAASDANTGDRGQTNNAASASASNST

Series 1 — SMILES: Nc1ncnc2c1cnn2-c1ccccc1; effect on: enzyme activity; action: inhibitor; tested at: 0.5 µM; reference: control
For LCK (Homo sapiens, UniProt P06239): remaining activity read 95.5%.
For MST1R (Homo sapiens, UniProt Q04912): remaining activity read 100%.
For ULK3 (Homo sapiens, UniProt Q6PHR2): remaining activity read 98.9%.
It gave 91.6% for remaining activity (GSK3B (Homo sapiens, UniProt P49841)).
For GRK7 (Homo sapiens, UniProt Q8WTQ7): remaining activity read 100%.
It gave 92.5% for remaining activity (RPS6KA2 (Homo sapiens, UniProt Q15349)).
The remaining activity was 100% (MAP3K5 (Homo sapiens, UniProt Q99683)).
The remaining activity was 97.9% (FGFR3 (Homo sapiens, UniProt P22607)).
The remaining activity was 90% (WEE1 (Homo sapiens, UniProt P30291)).
It gave 99.3% for remaining activity (ARAF (Homo sapiens, UniProt P10398)).
It gave 95.1% for remaining activity (CSNK1G2 (Homo sapiens, UniProt P78368)).
The remaining activity was 62.4% (NEK1 (Homo sapiens, UniProt Q96PY6)).
It gave 94.3% for remaining activity (MERTK (Homo sapiens, UniProt Q12866)).

Series 2 — effect on: radioligand binding; technique: radioligand displacement; tested at: 10 µM
Target: Translocator protein (Tspo, Rattus norvegicus, UniProt P16257)
Sequence of UniProt P16257 (whole entry, looked up): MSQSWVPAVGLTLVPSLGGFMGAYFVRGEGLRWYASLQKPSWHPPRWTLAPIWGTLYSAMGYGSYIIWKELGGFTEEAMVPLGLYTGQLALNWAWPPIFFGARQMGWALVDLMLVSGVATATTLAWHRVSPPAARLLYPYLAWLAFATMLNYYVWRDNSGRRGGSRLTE
The inhibition of `O=C(Nc1ccc(Oc2ccc(F)cc2)cc1)N1CCc2ncccc2[C@H]1c1ccc(F)cc1` is reported as 33.4%.
`CCOC(=O)c1cc2cc(-c3cc(C(=O)NCc4ccc(C(=O)O)cc4)nn3C)ccc2[nH]1` has an inhibition of -1.91%.
With `CCOCCn1cc(C(=O)Nc2ccc(-n3nc(-c4cccnc4)cc3C(F)(F)F)cn2)ccc1=O` the inhibition was -5.52%.
With `O[C@]1(C(F)(F)F)CCCC[C@H]1Nc1ccc(F)cc1` the inhibition was 2.79%.
`Cc1cnc(-c2cc(Cl)ccc2F)cc1-n1c(=O)n(CC(N)=O)c2cnccc21` gave an inhibition of -8.98%.
The inhibition of `O=C1NC(c2ccccn2)Sc2ccccc21` (centres unmarked) is reported as 22.6%.

Series 3 — technique: EMSA with sequencing; form: double-stranded DNA, one strand shown; sample: in vitro; tested at: 10 and 20 nM; reference: negative control set to 0; direction: higher = stronger binding
Target: Hepatocyte nuclear factor 3-alpha (Foxa1, Mus musculus, UniProt P35582, residues 1-468, full length assumed)
Sequence of UniProt P35582 (whole entry, looked up): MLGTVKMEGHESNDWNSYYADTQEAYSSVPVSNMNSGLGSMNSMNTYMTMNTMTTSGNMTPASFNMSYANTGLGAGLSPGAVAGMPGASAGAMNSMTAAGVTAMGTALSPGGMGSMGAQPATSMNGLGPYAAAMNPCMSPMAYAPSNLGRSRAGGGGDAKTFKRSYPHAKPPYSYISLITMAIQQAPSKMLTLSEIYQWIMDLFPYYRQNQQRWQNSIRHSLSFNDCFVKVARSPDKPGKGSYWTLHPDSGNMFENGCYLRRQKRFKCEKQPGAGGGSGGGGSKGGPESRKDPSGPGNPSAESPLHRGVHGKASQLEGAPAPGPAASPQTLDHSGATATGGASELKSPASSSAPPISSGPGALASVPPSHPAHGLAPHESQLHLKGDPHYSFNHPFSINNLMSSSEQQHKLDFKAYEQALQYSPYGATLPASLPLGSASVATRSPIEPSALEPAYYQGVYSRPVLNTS
Notes: whole designed probe, mean of two concentrations, ends assumed
`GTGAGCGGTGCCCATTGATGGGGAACATCTTCCCCCTCTTCCTTGCCCCACCAGCTCACCTTCCCGGGTTATTTGCAGATAGGAAAATAAATAAAGCCGGCATTCGTTAACCCTCTTCTGGCGCAAACTGCTGTTTGCGTATTCGAGATCATGGTCCTTTGGCGACGCCAGGCTCCGGGAGAGCAAAGCACCGTGTCAGGGCCATGATCCGGGGTGGCCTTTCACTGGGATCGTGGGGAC`: “normalised bound fraction” 0.351 ratio.
Under “normalised bound fraction”, `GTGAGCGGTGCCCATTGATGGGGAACATCTTCCCCCTCTTCCTTGCCCCACCAGCTCACCTTCCCGGGTATCTGCAAATAAGTATTTATTTTCAAGCCGGCATTCGTTAACCCTCTTCACGCGCATACTGCCAAAGTAAACAGATCTAACATGGTCCTTTGGCGACGCCAGGCTCCGGGAGAGCAAAGCACCGTGTCAGGGCCATGATCCGGGGTGGCCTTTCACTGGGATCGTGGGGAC` is recorded as 0.449 ratio.
`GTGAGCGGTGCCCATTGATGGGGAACTCTCTTTTAAAAATAGTGTTGGTGATATTTTAATTTTTTTTCCAACCAGTTTATATTTTACCAAACGCTTTTCCAAAGGCTGGACATACAATGTAATCTAGAAGGTGGAAATGTTACCCAGAGATGTCTAGCTTGTTGCTGAACTACAAATTTATTATTTAGAGGAAAGTTTACACTAGACATGTTGTCCAGATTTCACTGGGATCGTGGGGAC`: “normalised bound fraction” 0.0911 ratio.
`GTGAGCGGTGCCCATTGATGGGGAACTAAAAGCTGGTGAAATCTGAATAAGGTCTGTACCTGAGTTAAGAGGACTGTATCAATGACCATTTCCTGGTTTTGACAGTGTACTGTGGTTATGTAATTTTGGTTATGTGTATGTATCACTGGGGAAGCTGGGGAAGCATACATGGGAACTTTATGACTGTGCAACGTCTTGTGAGTCAACTACCTCAAATTATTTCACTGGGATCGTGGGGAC` — result for “normalised bound fraction”: -0.0266 ratio.
Under “normalised bound fraction”, `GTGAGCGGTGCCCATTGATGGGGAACCTGCAGATCTGCAAAAAAAGGGAGAAATCCGGCACTGGCTGCTCCACCGGGCCGGCTGCAAAGTGCGCGAACCGCGCCGTTTGCAATCCGTTTATTTGCATTATGCCCCATGAATCATTGTTTACCGGAGAATTGCAGCAGGGTTTGAATAGCCCGGCTTAAGAAAACACACACACACGCGCGCGCACACACATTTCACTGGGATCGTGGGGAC` is recorded as 0.43 ratio.

Series 4 — technique: RNA Bind-n-Seq; form: RNA; sample: in vitro; tested at: 90 pmol; notes: 4-mer, random 30-nt RNA, single round; together with: 3 µM DMDA-PatA, 2 mM ADP, 2 mM phosphate; reference: input library; direction: higher = stronger binding
Target: Eukaryotic initiation factor 4A-I (EIF4A1, Homo sapiens, UniProt P60842, residues 1-406, full length assumed)
Sequence of UniProt P60842 (whole entry, looked up): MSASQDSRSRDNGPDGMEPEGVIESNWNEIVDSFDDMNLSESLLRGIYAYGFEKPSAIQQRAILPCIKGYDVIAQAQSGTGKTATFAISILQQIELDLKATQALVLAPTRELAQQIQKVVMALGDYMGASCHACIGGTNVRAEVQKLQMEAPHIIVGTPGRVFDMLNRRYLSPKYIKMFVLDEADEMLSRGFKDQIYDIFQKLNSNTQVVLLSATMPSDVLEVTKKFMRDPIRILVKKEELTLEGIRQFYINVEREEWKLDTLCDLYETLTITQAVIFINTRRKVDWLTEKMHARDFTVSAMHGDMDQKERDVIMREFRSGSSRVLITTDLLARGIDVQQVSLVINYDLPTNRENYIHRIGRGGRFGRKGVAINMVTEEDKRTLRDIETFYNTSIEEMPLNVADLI
With `CGGC` the 4-mer enrichment was 0.952 fold.
`AGUG` has a 4-mer enrichment of 1.89 fold.
For `CCGU`, the 4-mer enrichment was 0.587 fold.
For `CGUU`, the 4-mer enrichment was 1.14 fold.
The 4-mer enrichment of `UUCU` is reported as 0.726 fold.
For `UUUG`, the 4-mer enrichment was 1.17 fold.
The 4-mer enrichment of `UUUU` is reported as 1.27 fold.
`UUAA` gave a 4-mer enrichment of 1.07 fold.

Some of these lines once more (series 4):
`UUAA` gave a 4-mer enrichment of 1.07 fold.
The 4-mer enrichment of `UUCU` is reported as 0.726 fold.
For `CGUU`, the 4-mer enrichment was 1.14 fold.
For `CCGU`, the 4-mer enrichment was 0.587 fold.
